Measurements gathered from unrelated publications.
A part holds a random share of what one study measured.

Study 1
Target: Fragile X messenger ribonucleoprotein 1, C-terminal low-complexity region (Fmr1, Mus musculus, UniProt P35922)
Method: RNA Bind-n-Seq
Molecule type: RNA
Sample: in vitro
Concentration: 200 nM
Notes: whole 134-nt RNA, ends assumed
Together with: 150 mM LiCl
Baseline: input library
Reading: higher = stronger binding
Measurement: log2 enrichment
All molecules: 7-deaza-guanosine replaces G
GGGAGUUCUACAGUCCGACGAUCCUCAAGUCCUGUGCUACACAUCGUAUGUACCGAAUCGGGCCGGCCGGGCCGGGGAAAGUAUUAUGUUACGCCGUUCGGAUCUGCACUUCCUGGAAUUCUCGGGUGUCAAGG: 0.527
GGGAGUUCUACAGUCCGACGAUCCACAGACAACACGCACCCACACAGACACAGAGGGAAGGGGUUGGGAUGGGGACAGGGUGCACAGCAGGGCGGGGAAAGACCCCAGCCCCUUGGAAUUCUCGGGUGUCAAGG: 2.18
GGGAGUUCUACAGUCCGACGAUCAAGUCCUGUGCUACACAUCGUAUGUACCGAAUCGGGUGGGUUUUUGGGUUUUUGGGAAAGUAUUAUGUUACGCCGUUCGGAUCUGCACUUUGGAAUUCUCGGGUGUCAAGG: -1.47
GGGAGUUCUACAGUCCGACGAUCCCUGUGCUACACAUCGUAUGUACCGAAUCGGGGCCCCCCGGGGCCCCCCGGGCCCCCCGGAAAGUAUUAUGUUACGCCGUUCGGAUCUGCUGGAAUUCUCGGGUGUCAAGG: -2.33
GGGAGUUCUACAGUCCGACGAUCUCAAGUCCUGUGCUACACAUCGUAUGUACCGAAUCGGGUUUUUGGGUGGGUGGGAAAGUAUUAUGUUACGCCGUUCGGAUCUGCACUUCCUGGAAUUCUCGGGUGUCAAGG: -1.39
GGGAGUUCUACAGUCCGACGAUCUCAAGUCCUGUGCUACACAUCGUAUGUACCGAAUCGGUGGAAAGGAAAAAAAGGAAAGUAUUAUGUUACGCCGUUCGGAUCUGCACUUCCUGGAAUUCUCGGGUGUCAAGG: -1.07
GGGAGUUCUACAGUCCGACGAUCGUCCUGUGCUACACAUCGUAUGUACCGAAUCGGAAAAAGGGGAAAAAGGGGAAAAAGGGAAAGUAUUAUGUUACGCCGUUCGGAUCUGCAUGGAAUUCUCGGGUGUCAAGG: 0.514
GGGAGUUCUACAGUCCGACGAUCCCUGUGCUACACAUCGUAUGUACCGAAUCGGGGAAAAAAGGAAAAAAGGGGAAAAAAGGGAAAGUAUUAUGUUACGCCGUUCGGAUCUGCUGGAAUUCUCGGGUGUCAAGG: 0.147
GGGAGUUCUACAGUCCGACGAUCGCAGGAAGGAAAAACAAAUGGAAAUGCUUCGGAUAGUGGCAGGGGUGGGGGUUGCUAAGGAAAGGGUGGGAUGGGAGUGGGUAAAGAGUUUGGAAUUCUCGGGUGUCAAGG: 1.56
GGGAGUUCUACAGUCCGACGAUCUGGCCCUGGUGGCAUGCGGGGAGGAAGAGGUGGCCUCAUGGAUCGUGGUGGUCUCGGUGGAAUGUUCAGAGGUGGCCGUGGUGGAGACAGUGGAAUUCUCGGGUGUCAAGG: 0.493
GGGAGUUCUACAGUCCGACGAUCUGGCCCUGGUGGCAUGCGGGGAGGAAGAGGUGGGCUCAUGGAUCGUGGUGGUCCCGGUGGAAUGUUCAGAGGUGGCCGUGGUGGAGACAGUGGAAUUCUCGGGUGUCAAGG: 1.03

Study 2
Target: RNA binding protein fox-1 homolog 2, RRM domain, GST-SBP tag (RBFOX2, Homo sapiens, UniProt O43251-10, residues 100-194)
Method: RNA Bind-n-Seq
Molecule type: RNA
Sample: in vitro
Concentration: 365 nM
Notes: natural RNA segment, single round, ends assumed
Baseline: no-protein control
Reading: higher = stronger binding
Measurement: RBNS enrichment (R)
Residues (chain): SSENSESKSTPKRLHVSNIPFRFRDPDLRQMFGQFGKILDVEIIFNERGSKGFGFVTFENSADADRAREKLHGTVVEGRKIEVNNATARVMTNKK
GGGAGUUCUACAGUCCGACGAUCUAUUUAAUUAGUCAAAUCAAUUUUUAAAUCAUAACUCCUUAAUCUCAUAAGAAGCAAUAAAUGCAUAAAGCAUUAUAUUAAAAUACCAGGGUUACUUAUGUCAUUGACAGUGGAAUUCUCGGGUGCCAA: 0.498
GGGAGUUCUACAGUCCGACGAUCCUUCCCUGCUAUCCUUUUUCUCCUUUGGAGGUGCCCAACCUCCUCCACCCCCUUCCCCUACUCUAGGGGAGAGAGCUGCUAGUGAGAUGACUGUUUUAUAAAGAAAUGGAUGGAAUUCUCGGGUGCCAA: 0.412
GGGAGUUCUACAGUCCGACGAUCCACCCCUCCCACAGCACCCAGCCUCACUACCCCAGCAUGGGGUACCCAGCUGGAUACUCCCAAAAUGUCACAUCCCAUCCAACCUCAGAUCUGAUGCAGUCAUCUGUGUCUGGAAUUCUCGGGUGCCAA: 0.475
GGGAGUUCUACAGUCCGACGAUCAGUUUUGUACUCACCAUAUAUGGAUCAUUCCUCAUGUAUAAUGUGCCCCAAAUGCAGCUUCAUUUUCCAGAUACCUUGACGCAGAAUAAAUUUUUUCAUCAUUUAGGUGCUGGAAUUCUCGGGUGCCAA: 0.39
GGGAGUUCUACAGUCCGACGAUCUCCCUGCUGCAUCUGCAUGAAGCCCCUGCUUUUUAGGCCUCACUCCCAUCAGAACCCUGCCUGCCCACCUGCAACUCCCCCCCAACAAUGCCAUUCCCACUUGCCCCAGAUGGAAUUCUCGGGUGCCAA: 15.5
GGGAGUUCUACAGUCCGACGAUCUGCAAUCAAACCUAAGCUGUUGCCACAAACCACUAAUGAAACUCAGUGUUUGAGCCAAAUCUCCGCAAUUGAGAGCAGUGCAAGUGCUGAGAGGAUGUAGACUGGGCUGGUGGAAUUCUCGGGUGCCAA: 0.33
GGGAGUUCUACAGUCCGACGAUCCUUUCGGGUCAUGUUUCUUGUCUUGUUCCCAGAUCUUUUCUUAAAAGAACAGUGUGACACCAGAAGCCAAGAGAUGGUUUUUACUAACAACAGCUUUGAUGAGUUCCUAUUGGAAUUCUCGGGUGCCAA: 0.166
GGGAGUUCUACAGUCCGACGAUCUUAGAUUUUCUGUCUUAAACCAUUGGAAGCAAAACGGUUUUCCCAUGACAUUCUGGCCUUGGACAGAUUCUGUUGUCCUCGACGCGUCUCUUUAUAAAGUGGUAAAAGCCUGGAAUUCUCGGGUGCCAA: 0.285
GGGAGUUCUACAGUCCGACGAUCCAUGUACAUAUAUAUAUAUAUAAAACAUCAGCCUUGGGUGUGUUUGUAUAUAAACUCCAAAGAGAAACACCCCAAUAGCCUAAGCAAUAAUGCAAAGAUCUUGCCCCUGCUGGAAUUCUCGGGUGCCAA: 0.521
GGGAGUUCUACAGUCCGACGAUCCCAUUGGCAGGGGCCCAAGAAGUUCAGUGACCAACUGGUCCUUCCACACCACACCAGCUGGUGCUGCCCAUGUCUGUCGAAUCAUAACGGAAAAUUCCCCAGAUCACGUUUGGAAUUCUCGGGUGCCAA: 0.483
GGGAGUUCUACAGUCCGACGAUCGGAAGAUCCUCUUUCCAGGCCUCUCUAACCAAGUCUCAAAUAUCCAGGCAGAGUUUUAGUAUGACAUUGUGUGAUGAAUGCAAAUCAACACACAGAAUAAAUGGCUCUUUUGGAAUUCUCGGGUGCCAA: 0.494
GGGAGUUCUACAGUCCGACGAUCGCUUUGGGCACAGCCUGCUGUCUUUUCCAUUUCCUAAAGUUUACUUCAUUGUCUUGAGGCUUCCAGGUUUUGUUUUUGUUUUUGCCAAAGUAGAAAAGGCAGGUGGUGGGUGGAAUUCUCGGGUGCCAA: 1.01

Study 3
Target: PABPC1L2, full length, GST fusion (mouse, UniProt A0ABA7IW68)
Method: RNAcompete
Molecule type: RNA
Sample: in vitro
Concentration: 20 nM
Notes: 7-mer, probes averaged, single round
Baseline: mean of 7-mers
Reading: higher = stronger binding
Measurement: 7-mer Z-score
Residues (chain): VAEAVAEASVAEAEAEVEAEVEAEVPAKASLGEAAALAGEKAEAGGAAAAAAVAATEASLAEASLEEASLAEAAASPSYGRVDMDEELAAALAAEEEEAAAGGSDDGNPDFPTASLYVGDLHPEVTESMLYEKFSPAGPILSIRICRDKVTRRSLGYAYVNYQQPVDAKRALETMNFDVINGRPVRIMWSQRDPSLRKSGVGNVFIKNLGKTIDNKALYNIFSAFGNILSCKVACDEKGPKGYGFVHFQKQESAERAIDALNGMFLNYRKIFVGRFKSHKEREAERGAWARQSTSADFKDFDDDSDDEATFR
CAGUGCG: -0.139
GCGGUCC: -0.195
AUUGGCA: 0.162
UAGCAAC: -0.0953
UUAAAUU: 0.483
CGGCGGG: 0.193
GCUCUGG: -0.153
GCAGCUA: -0.0518
UGGCGGG: 0.274
GCAGUCA: -0.142
ACCUACA: -0.0681
AAUUCUA: -0.13
AUAAUCC: -0.115
GGCCAUA: -0.0772
GCAUCCU: -0.271
GUCGCGG: -0.161
UAACUGA: -0.162
GGGUGGG: 0.244
UCGCGGA: -0.153

Study 4
Target: Sal-like protein 4, full length isoform B (SALL4, Homo sapiens, UniProt Q9UJQ4-2, residues 1-616)
Method: universal PBM
Molecule type: double-stranded DNA, one strand shown
Sample: in vitro
Concentration: not given
Notes: 8-mer, flanks averaged, mean of replicates
Reading: higher = stronger binding
Measurement: E-score
CGTCATAG: 0.0533
TTGAGCAA: 0.0417
CTAGTCTA: -0.109
AGGTGTCA: 0.0788
GGACCGTA: -0.18
GGTTGTCA: -0.00974
GTAGAGGA: -0.107
TCCGGAGA: -0.174
CTGGTCGA: -0.307
ATGCCAAG: 0.0744
GAACTTGA: 0.0478
AGATCGGC: -0.277
TGAGTACA: 0.112
CTGTACTA: -0.00679
AGATTGCA: 0.13
CGTTAGGC: -0.156
CGGCCAAC: -0.267
ACTCCGCC: -0.218
ACTTTATG: 0.255
CGCGTAAC: -0.0715
GTTTGCCA: -0.049
CTCCGATC: -0.277
CGGGTGGA: -0.225
ACAACGGC: -0.154
GTAGTCAA: 0.0528

Study 5
Target: Histone acetyltransferase KAT6A, winged helix 1, GST fusion (KAT6A, Homo sapiens, UniProt Q92794, residues 1-85)
Method: protein binding microarray
Molecule type: double-stranded DNA, one strand shown
Sample: in vitro
Concentration: not given
Notes: 8-mer, flanks averaged, mean of 2 arrays, mostly near background
Baseline: not given
Reading: higher = stronger binding
Measurement: E-score
Construct (chain): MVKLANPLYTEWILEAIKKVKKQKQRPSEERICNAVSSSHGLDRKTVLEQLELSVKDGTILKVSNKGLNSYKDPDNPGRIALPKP
ACGTCATC: 0.0314
CGCCTCCG: 0.278
GAAGAAGA: -0.176
GGGGCTTA: -0.00833
ATACTCCA: -0.0682
ACTTTATC: -0.16
CAATCAGC: -0.0179
AAAATCGG: 0.0845
CATGCGAG: 0.045
CCTGTTCC: -0.147
CCTCAGTA: -0.0832
CAGATGAA: -0.211
CCGCGTAA: 0.373
CGGCTGGC: 0.217
AAACCTCG: -0.0621
CAGGCTTA: -0.139
AAGTAGCC: -0.0104

Study 6
Target: Interferon regulatory factor 5, full length, phosphomimetic (IRF5, Homo sapiens, UniProt Q13568-2, residues 1-514, K96S/S451D/S453D/S456D/S462D)
Method: protein-binding microarray
Molecule type: double-stranded DNA, one strand shown
Sample: in vitro
Concentration: 250 nM
Notes: 60-bp whole probe
Together with: salmon DNA 0.4 mg/ml
Baseline: random background probes
Reading: higher = stronger binding
Measurement: log fluorescence
Shared flanks, not repeated: GCCTAGCAC … GTCTTGATTCGCTTGACGCTGCTG
ATGAGACTGTCACATCCCTGGTGCTAG: -0.271 z-score
TTAGATATCGGGTATCAATTAGTGCTA: 3.14 z-score
GACGGTTTCGGGACTGGGGAGGTGCTA: 4.74 z-score
GACGATATCAGTCTCGAGAGGTGCTAG: 1.03 z-score
TTGGGTTTCGGTTTCGGTTAGTGCTAG: 11.4 z-score
TTAGGTATCCTTATCCTCTAGTGCTAG: -0.106 z-score
TTAGGTTTCGGTTTCGATTAGTGCTAG: 11.8 z-score
TTGCTTTCCTTTATGTACTCGTGCTAG: 2.03 z-score
ATAGATCTCAGTTTCGATTAGTGCTAG: 9.09 z-score
TTAGGTTTCGTTATCGGTTAGTGCTAG: 9.63 z-score
TTAGGTTTCGGGGATCGGTTAGTGCTA: 6.46 z-score
TCATATATTTGCTTCAGACTGTGCTAG: 0.692 z-score
GAAAATCAACCAGGTGGTGTGTGCTAG: 0.777 z-score
TTAGAATTCGGGACTGGATTAGTGCTA: 0.0956 z-score
GACGATATCGGGTATCGCGACGTGCTA: 1.95 z-score
TCACATCTGCAACATCTAACTGTGCTA: 0.337 z-score
TCATCTTTTCATTACTGACTGTGCTAG: 1.39 z-score
GACGGTTTGCTTTTCCTGACGTGCTAG: 0.258 z-score
GACGATCTCGGTATCGAGACGTGCTAG: 1.17 z-score
GACTAACTGAGTCTCGAGACGTGCTAG: -0.0962 z-score
TTAGGTCTCGGTATCGTTTAGTGCTAG: 2.08 z-score

A few entries again (study 3):
ACCUACA: -0.0681
AAUUCUA: -0.13
AUAAUCC: -0.115
GGCCAUA: -0.0772
GCAUCCU: -0.271
GUCGCGG: -0.161
UAACUGA: -0.162
GGGUGGG: 0.244
UCGCGGA: -0.153
